Experimental data pooled from the literature.
Compare with care: the assays were run in different laboratories. Several values in a cell are separate wells, animals, samples, runs or records. pIC50: −log10 of the molar value.
Target: D(1A) dopamine receptor (DRD1, Homo sapiens, UniProt P21728)
Chain of UniProt P21728 (whole entry, looked up): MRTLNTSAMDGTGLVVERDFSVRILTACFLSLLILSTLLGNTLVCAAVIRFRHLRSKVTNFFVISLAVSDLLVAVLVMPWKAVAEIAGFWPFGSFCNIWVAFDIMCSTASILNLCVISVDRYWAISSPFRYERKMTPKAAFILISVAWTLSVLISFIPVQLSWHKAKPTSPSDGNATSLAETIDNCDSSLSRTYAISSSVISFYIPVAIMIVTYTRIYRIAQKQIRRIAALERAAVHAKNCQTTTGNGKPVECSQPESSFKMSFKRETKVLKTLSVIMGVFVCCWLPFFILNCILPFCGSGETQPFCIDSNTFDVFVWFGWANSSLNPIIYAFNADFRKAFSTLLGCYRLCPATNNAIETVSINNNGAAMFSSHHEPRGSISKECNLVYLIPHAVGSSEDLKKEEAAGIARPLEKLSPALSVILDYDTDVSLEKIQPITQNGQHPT

N[C@H](C(=O)N1CCCC1)C1CCN(c2nccc3c(-c4ncc(Cl)cc4Cl)cccc23)CC1 — inhibition (functional response, antagonist; 10 µM): -3%
Cc1cc(Nc2nc(C[C@@]3(C(=O)O)CCN(Cc4cccc(Cl)c4F)[C@H](C)C3)cc(C)c2F)[nH]n1 — activation (agonist; 10 µM): 1.35%
C/C(=N\OCCCN1CCCCC1)c1ccc(C(F)(F)F)cc1 — inhibition (antagonist, cAMP; 10 µM): 15.9%
CCCO[C@H]1[C@H](O)[C@@H](N)[C@@H](O[C@H]2[C@H](O[C@@H]3O[C@H](CO)[C@@H](O[C@H]4O[C@@H](CN)[C@@H](O)[C@H](O)[C@H]4N)[C@H]3O)[C@@H](O)[C@H](N)C[C@@H]2N)O[C@@H]1CO — specific binding (radioligand binding; 10 µM, 1% DMSO): 5%
CCOC(=O)[C@](CC)(CCCSCCOCCOCCNC(=O)c1ccc(-c2c3ccc(=N)c(S(=O)(=O)O)c-3oc3c(S(=O)(=O)O)c(N)ccc23)c(C(=O)O)c1)NC(=O)c1ccc(C2CC2)c(Cc2ccc(F)cc2)n1 — inhibition (ligand displacement, radioligand; 10 µM): 10%
Cc1cc(-c2ccc3ccccc3c2)nnc1NCCN1CCN(C)CC1 — activity (antagonist; 10000 nM; reference: control): 0%
CCc1nnc(-c2c(OC)cc(-c3cnc4cc(-c5cnn(C)c5)ccn34)cc2OC)o1 — remaining binding (antagonist radioligand, radioligand binding; 10 µM, SafetyScreen44 D1 replicate 2; lower = stronger displacement): 94.4%
CN[C@@H]1[C@H](O)[C@H](NC)[C@H]2O[C@]3(O)[C@H](O[C@@H]2[C@H]1O)O[C@H](C)C[C@H]3NC(=O)Cc1cc(Cl)ccn1 — inhibition (ligand displacement, radioligand; 10 µM): 6%
O=C(O)c1ccc(-c2nc(-c3ccccc3Cl)c3sccn23)cc1 — specific binding (radioligand binding, safety screen panel; 10 µM; reference: control): 97.7% and 96.1%
COc1ccccc1N1CCN(CCCCN2CCCc3ccccc3C2=O)CC1 — inhibition (radioligand binding; concentration not given, with: [3H]SCH23390): 43.6%
Cc1ccc2c(n1)c(-c1cccc(S(C)(=O)=O)c1)c(C)n2C/C(F)=C/CN — inhibition (ligand displacement, radioligand; 10 µM): 6%
Cc1sc2c(c1C)C(c1ccc(Cl)cc1)=NC(CC(=O)OC(C)(C)C)c1nnc(C)n1-2 (centres unmarked) — remaining binding (ligand displacement, radioligand; 1 µM): 102%
C[C@@H]1COCCN1c1nc(NCc2cccnc2C(F)(F)F)c2cccnc2n1 — pIC50 (binding; CEREP panel): < 4.00
COc1ccc(F)cc1S(=O)(=O)Nc1cnc2c(c1)C(=O)NCCO2 — inhibition (ligand displacement, radioligand; 10 µM): 0%

Repeated from above:
C[C@@H]1COCCN1c1nc(NCc2cccnc2C(F)(F)F)c2cccnc2n1 — pIC50 (binding; CEREP panel): < 4.00
